Assay results pooled from the literature.
± marks the error that the study gave.
Method: steady-state kinetics
B1: anthranilate synthase (Streptomyces venezuelae, UniProt O30589); chain MDLSRLLDPSCPPFALLRRRTPGRDHDTVEVLIGRVHEAERLAELPVGPLPALALVPFRQIRERGFDVRDDGTPLSVLVAEETHTLPLAEALDRLPAHDVTVEDGGFDVSDEEYAGIVRRVIDEEIGSGEGANFVIRRTYTGEIPGFGRADALALFRRLLAGERGAYWTFVVHTGDRTLVGASPEVHVRMSGGTVVMNPISGTYRYPAGAAPTAEGLLAFLADRKETEELSMVVDEELKMMCTVGDMGGVVIGPRLKEMAHLAHTEYELRGRSSLDVREVLRETMFAATVTGSPVQNACRVIERHEVGGRGYYAGALALLGTDENGAQSLDSPILIRTADIAADGHLRVPVGATLVRHSDPAGEVAETHAKAAGVLTALGVREGRPAGGPAPAPTALADDPRVRAALDARRADLAPFWLRMQVRSAELSGHALVIDAEDTFTAMLAHVLRSSGLDVSVLRYDEPGLRELALAHEGPVVLGPGPGNPSDAADPKMRFLRALTADLVRDHRHGLLGVCLGHELIAAELGLEIVRKRTPFQGAQMRIDLFGQERTVGFYNSFTARCDERTATELALHRIEVSRDAETGEVHALRGPGFAGVQFHPESVLTTDGAALTASLLAGVLV
B2: enzyme F187A (Thermococcus kodakarensis, UniProt Q5JID5); chain MLYVEILGNLPEMARDEVKAMLELGGGEIIGQDYLFLKVDAGEKAFPFLDRLGLAHEYGLLLVEADSVEELLQKAGEVEWPIKGAFKVDTETMANCRHDVLDLPRKLGAVIHAQGFRVNLSKPDTVVRVYCGERLYAGIRLRYFDPKDFEKRKAHHRPFFRPISLHPRVSRALVNLTKATREILDPAMGAGGILIEAGLLGLRVYGVDIRPEMVEGAETNLKHYGVRDYTLKLGDATRLEDLFPDKKFEAVATDPPYGTAATLAGRKRDELYRKALRSIYNVLEDGGRLAIAFPTDFNGKAEAEAVGFRTLGRYYQRVHKSLERYFYVFEK
B3: IYD (Homo sapiens, UniProt Q6PHW0); chain MGEPRTRAEARPWVDEDLKDSSDLHQAEEDADEWQESEENVEHIPFSHNHYPEKEMVKRSQEFYELLNKRRSVRFISNEQVPMEVIDNVIRTAGTAPSGAHTEPWTFVVVKDPDVKHKIRKIIEEEEEINYMKRMGHRWVTDLKKLRTNWIKEYLDTAPILILIFKQVHGFAANGKKKVHYYNEISVSIACGILLAALQNAGLVTVTTTPLNCGPRLRVLLGRPAHEKLLMLLPVGYPSKEATVPDLKRKPLDQIMVTV
B4: enzyme N158A (Sinorhizobium meliloti, UniProt Q92UV7); chain MTNAEVTIAVRHEPMRIAGRLVDTDDRVEVRYPWNDTVVGTVPAGRAEHAREAFAIAAAYQPKLTRYERQKILLATAEALAARKEEISDVITLELGISKADSLYEVGRAFDVFTLAGQMCIRDDGEIFSCDLTPHGKARKIFTMREPLTAISAITPFAHPLNMVAHKVAPAIATNNCVVVKPTELTPMTALLLADILYEAGLPPEMLSVVTGWPADIGMEMITNPHVDLVTFTGSVPVGKLIAANAHYKRQVLELGGNDPLIILNDLSDDDLARAADLAVAGATKNSGQRCTAVKRILCQESVADRFVPLVLERAKRLRFGDPMDRSTDLGTVIHEKAAALFEERVMRAAEEGADILYHPGRSGALLPPIVVDRVPHQSDLVLEETFGPIIPIVRVPDDDDATITLSNSTAFGLSSGVCTNDYRRMQKYIAGLKVGTVNIWEVPGYRIEMSPFGGIKDSGNGYKEGVIEAMKSFTNVKTFSLPWP
B5: enzyme K299V (Mus musculus, UniProt P08680); chain DRKSKIVQRAAPEVQEDVKTFKTDLLSTMDSTTRSHSFPSFQEPEQTEGAVPHLIQNNMTGSQAFGYDQFFRDKIMEKKQDHTYRVFKTVNRWANAYPFAQHFSEASMASKDVSVWCSNDYLGISRHPRVLQAIEETLKNHGAGAGGTRNISGTSKFHVELEQELAELHQKDSALLFSSCFVANDSTLFTLAKLLPGCEIYSDAGNHASMIQGIRNSGAAVFVFRHNDPGHLKKLLEKSDPKTPKIVAFETVHSMDGAICPLEELCDVAHQYGALTFVDEVHAVGLYGARGAGIGERDGIMHKLDIISGTLGKAFGCVGGYIASTRDLVDMVRSYAAGFIFTTSLPPMVLSGALESVRLLKGEEGQALRRAHQRNVKHMRQLLMDRGFPVIPCPSHIIPIRVGNAALNSKICDLLLSKHSIYVQAINYPTVPRGEELLRLAPSPHHSPQMMENFVEKLLLAWTEVGLPLQDVSVAACNFCHRPVHFELMSEWERSYFGNMGPQYVTTYA
B6: GTPBP3 A322P/E225K (Homo sapiens, UniProt Q969Y2); chain TRRSSGAPAPGSGATIFALSSGQGRCGIAVIRTSGPASGHALRILTAPRDLPLARHASLRLLSDPRSGEPLDRALVLWFPGPQSFTGEDCVEFHVHGGPAVVSGVLQALGSVPGLRPAEAGEFTRRAFANGKLNLTEVEGLADLIHAETEAQRRQALRQLDGELGHLCRGWAETLTKALAHVEAYIDFGEDDNLEEGVLEQADIKVRALQVALGAHLRDARRGQRLRSGVHVVVTGPPNAGKSSLVNLLSRKPVSIVSPEPGTTRDVLETPVDLAGFPVLLSDTAGLREGVGPVEQEGVRRPRERLEQADLILAMLDASDLASPSSCNFLATVVASVGAQSPSDSSQRLLLVLNKSDLLSPEGPGPGPDLPPHLLLSCLTGEGLDGLLEALRKELAAVCGDPSTDPPLLTRARHQHHLQGCLDALGHYKQSKDLALAAEALRVARGHLTRLTGGGGTEEILDIIFQDFCVGK
B7: enzyme E323G (UniProt H9KVH3); chain ADASQIVSEMGAGWNLGNQLEAAVNGTPNETAWGNPTVTPELIKKVKAAGFKSIRIPVSYLNNIGSAPNYTINAAWLNRIQQVVDYAYNEGLYVIINIHGDGYNSVQGGWLLVNGGNQTAIKEKYKKVWQQIATKFSNYNDRLIFESMNEVFDGNYGNPNSAYYTNLNAYNQIFVDTVRQTGGNNNARWLLVPGWNTNIDYTVGNYGFTLPTDNYRSSAIPSSQKRIMISAHYYSPWDFAGEENGNITQWGATSTNPAKKSTWGQEDYLESQFKSMYDKFVTQGYPVVIGGFGSIDKTSYDSSNNVYRAAYAKAVTAKAKKYKMVPVYWDNGHNGQHGFALFNRSNNTVTQQNIINAIMQGMQ
B8: SUOX P184A (Homo sapiens, UniProt P51687); chain ESTHIYTKEEVSSHTSPETGIWVTLGSEVFDVTEFVDLHPGGPSKLMLAAGGPLEPFWALYAVHNQSHVRELLAQYKIGELNPEDKVAPTVETSDPYADDPVRHAALKVNSQRPFNAEPPPELLTENYITPNPIFFTRNHLPVPNLDPDTYRLHVVGAPGGQSLSLSLDDLHNFPRYEITVTLQCAGNRRSEMTQVKEVKGLEWRTGAISTARWAGARLCDVLAQAGHQLCETEAHVCFEGLDSDPTGTAYGASIPLARAMDPEAEVLLAYEMNGQPLPRDHGFPVRVVVPGVVGARHVKWLGRVSVQPEESYSHWQRRDYKGFSPSVDWETVDFDSAPSIQELPVQSAITEPRDGETVESGEVTIKGYAWSGGGRAVIRVDVSLDGGLTWQVAKLDGEEQRPRKAWAWRLWQLKAPVPAGQKELNIVCKAVDDGYNVQPDTVAPIWNLRGVLSNAWHRVHVYVSP
B9: protein (UniProt A0A4Y6I1F8); chain MGSEVVSKKHEFGALEVEGIDFRASVAALGSTKKLVLGGAGFRGLEINGNLVKFTAIGIYVEEAIIPHLSPKLGGKTVEELCANELLFEEVLSAPFDKLIRVVFLLPLTGPQYSEKVVERIGLLPNPGLKEESIKQFLEIFKAENFPPRTSLVCSFTEDGLKIAFMKGPDFPEESDAVIEDKYFARAFLATIIAKDGVSPMAKLSFAERVSKYL
B10: Nudt8 (Mus musculus, UniProt Q9CR24); chain MLPDGLSAEDEQRCRQLLARTTARLRSRPAAAAVLVPLCLVRGVPALLYTLRSSRLVGRHKGEVSFPGGKCDPDDQDVIHTALRETQEELGLEVPKEHVWGVLQPVYDREKATIVPVLANVGPLDLQSLRPNLEEVDEVFEMSLAHLLQTQNQGYTHFCQGGHFSYTLPVFLHGPHRVWGLTAVITELTLKLLAPGFYQPSLAVPELPRG
B11: cyc1 F332A (Streptomyces coelicolor, UniProt Q9K499); chain MHAFPHGTTATPTAIAVPPSLRLPVIEAAFPRQLHPYWPKLQETTRTWLLEKRLMPADKVEEYADGLCYTDLMAGYYLGAPDEVLQAIADYSAWFFVWDDRHDRDIVHGRAGAWRRLRGLLHTALDSPGDHLHHEDTLVAGFADSVRRLYAFLPATWNARFARHFHTVIEAYDREFHNRTRGIVPGVEEYLELRRLTFAHWIWTDLLEPSSGCELPDAVRKHPAYRRAALLSQEFAAWYNDLCSLPKEIAGDEVHNLGISLITHHSLTLEEAIGEVRRRVEECITEFLAVERDALRFADELADGTVRGKELSGAVRANVGNMRNWFSSVYWAHHESGRYMVDSWDDRSTPPYVNNEAAGEK
Chain of UniProt Q8QZR1 (whole entry, looked up): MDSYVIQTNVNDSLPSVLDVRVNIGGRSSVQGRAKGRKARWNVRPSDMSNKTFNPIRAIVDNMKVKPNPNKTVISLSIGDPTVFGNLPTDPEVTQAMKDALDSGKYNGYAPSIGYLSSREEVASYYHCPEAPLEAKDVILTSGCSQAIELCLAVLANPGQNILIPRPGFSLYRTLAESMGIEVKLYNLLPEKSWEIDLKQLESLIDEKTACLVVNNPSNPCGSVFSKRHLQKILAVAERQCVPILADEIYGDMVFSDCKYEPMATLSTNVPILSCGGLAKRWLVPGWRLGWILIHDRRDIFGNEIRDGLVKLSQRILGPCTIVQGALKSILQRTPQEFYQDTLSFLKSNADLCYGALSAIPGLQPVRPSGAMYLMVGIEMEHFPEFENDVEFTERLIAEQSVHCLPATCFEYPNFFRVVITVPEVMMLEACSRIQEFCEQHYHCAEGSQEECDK
Chain of UniProt O34714 (whole entry, looked up): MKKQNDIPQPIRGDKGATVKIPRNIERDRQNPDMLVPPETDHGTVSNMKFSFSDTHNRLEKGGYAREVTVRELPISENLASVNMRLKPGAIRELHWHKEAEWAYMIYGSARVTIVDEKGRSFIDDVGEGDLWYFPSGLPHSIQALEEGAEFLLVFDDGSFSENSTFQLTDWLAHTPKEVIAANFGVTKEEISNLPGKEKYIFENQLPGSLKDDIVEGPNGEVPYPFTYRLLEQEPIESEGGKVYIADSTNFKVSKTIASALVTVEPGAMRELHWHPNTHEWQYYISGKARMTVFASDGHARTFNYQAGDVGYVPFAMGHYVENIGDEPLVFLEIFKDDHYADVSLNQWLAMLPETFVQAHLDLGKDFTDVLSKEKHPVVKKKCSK
Chain of UniProt Q8N6T7 (whole entry, looked up): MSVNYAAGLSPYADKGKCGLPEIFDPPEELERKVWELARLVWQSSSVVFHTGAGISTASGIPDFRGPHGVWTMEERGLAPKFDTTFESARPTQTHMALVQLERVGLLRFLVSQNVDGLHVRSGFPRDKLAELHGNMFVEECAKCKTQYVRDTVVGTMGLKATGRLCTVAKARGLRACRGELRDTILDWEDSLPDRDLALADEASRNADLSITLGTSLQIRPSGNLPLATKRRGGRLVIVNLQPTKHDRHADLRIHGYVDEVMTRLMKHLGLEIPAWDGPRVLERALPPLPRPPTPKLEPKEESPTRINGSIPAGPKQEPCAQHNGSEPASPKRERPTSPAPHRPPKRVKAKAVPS
Chain of UniProt P0AB87 (whole entry, looked up): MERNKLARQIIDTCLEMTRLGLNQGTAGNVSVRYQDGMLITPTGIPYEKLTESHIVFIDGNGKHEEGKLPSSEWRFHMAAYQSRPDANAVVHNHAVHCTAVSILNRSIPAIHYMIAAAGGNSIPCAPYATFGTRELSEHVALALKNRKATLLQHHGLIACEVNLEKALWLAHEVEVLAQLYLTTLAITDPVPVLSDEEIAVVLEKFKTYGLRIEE

Substance | substrate | pH | temperature | setting | with | kcat
B1 (anthranilate synthase) | C=C(O[C@@H]1C=C(C(=O)O)C=C[C@H]1O)C(=O)O | pH 7.5 | 30 °C | – | glutamine saturating; MgCl2 12.5 mM | 0.57 ± 0.02 s⁻¹
B2 (enzyme F187A) | C[S+](CC[C@H](N)C(=O)O)C[C@H]1O[C@@H](n2cnc3c(N)ncnc32)[C@H](O)[C@@H]1O | pH 7.5 | 50 °C | apparent | – | 0.0035 ± 0.000333 s⁻¹
SIRT6 (Homo sapiens, UniProt Q8N6T7) | CSCC[C@H](NC(=O)[C@H](CC(C)C)NC(=O)[C@H](CCCCNC(C)=O)NC(=O)[C@H](CCCCN)NC(=O)[C@H](Cc1c[nH]cn1)NC(=O)[C@H](CCCNC(=N)N)NC(=O)[C@H](CO)NC(=O)[C@@H](NC(=O)[C@H](CO)NC(=O)[C@H](CCC(N)=O)NC(=O)CNC(=O)[C@H](CCCCN)NC(=O)[C@@H](N)CCCCN)[C@@H](C)O)C(=O)N[C@@H](Cc1ccccc1)C(=O)N[C@@H](CCCCN)C(=O)N[C@H](C(=O)N[C@@H](CCC(=O)O)C(=O)NCC(=O)O)[C@@H](C)O | pH 7.5 | 37 °C | – | NAD+ 800 µM, SIRT6 10 µM | 0.0014 ± 0.0006 s⁻¹
AphC (Rhodococcus jostii, UniProt Q0S9X1) | Oc1ccccc1O | pH 8 | 25 °C | apparent | O2 | 0.068 s⁻¹
B3 (IYD) | Cc1cc(C[C@H](N)C(=O)O)cc(I)c1O | pH 7.4 | 25 °C | – | sodium dithionite 0.5% | 0.76 ± 0.05 s⁻¹
B4 (enzyme N158A) | NC(=O)c1ccc[n+]([C@@H]2O[C@H](COP(=O)(O)OP(=O)(O)OC[C@H]3O[C@@H](n4cnc5c(N)ncnc54)[C@H](O)[C@@H]3O)[C@@H](O)[C@H]2O)c1 | pH 7.5 | 30 °C | cofactor varied | – | 0.01 ± 0.001 s⁻¹
B5 (enzyme K299V) | CC(C)(COP(=O)(O)OP(=O)(O)OC[C@H]1O[C@@H](n2cnc3c(N)ncnc32)[C@H](O)[C@@H]1OP(=O)(O)O)[C@@H](O)C(=O)NCCC(=O)NCCSC(=O)CCC(=O)O | pH 7.5 | 37 °C | – | – | 0.17 ± 0.002 s⁻¹
B6 (GTPBP3 A322P/E225K) | Nc1nc2c(ncn2[C@@H]2O[C@H](COP(=O)(O)OP(=O)(O)OP(=O)(O)O)[C@@H](O)[C@H]2O)c(=O)[nH]1 | pH 8 | 37 °C | KCl 300 mM | – | 0.0132 ± 0.002 s⁻¹
B7 (enzyme E323G) | OC[C@H]1O[C@@H](O[C@H]2[C@@H](OC[C@H]3O[C@@H](O[C@H]4[C@H](O)[C@@H](O)[C@H](O[C@H]5[C@H](O)[C@@H](O)[C@@H](F)O[C@@H]5CO)O[C@@H]4CO[C@H]4OC[C@@H](O)[C@H](O)[C@H]4O[C@@H]4O[C@H](CO)[C@H](O)[C@H](O)[C@H]4O)[C@H](O)[C@@H](O)[C@@H]3O[C@@H]3O[C@H](CO[C@H]4OC[C@@H](O)[C@H](O)[C@H]4O)[C@@H](O)[C@H](O)[C@H]3O)OC[C@@H](O)[C@@H]2O)[C@H](O)[C@@H](O)[C@H]1O | pH 7.5 | 30 °C | apparent | – | 0.482 ± 0.02 s⁻¹
B8 (SUOX P184A) | O=S(O)O | pH 8 | 25 °C | – | oxidized cyt c 400 µM | 39 ± 2 s⁻¹
HCT (Coleus scutellarioides, UniProt E8ZAP2) | O=C(O)C1=C[C@@H](O)[C@@H](O)[C@H](O)C1 | pH 8 | – | pseudo-first-order | p-coumaroyl CoA | 30.1 ± 0.7 s⁻¹
fucA (Escherichia coli, UniProt P0AB87) | C[C@@H](O)[C@@H](O)C(=O)COP(=O)(O)O | pH 7.8 | 30 °C | – | – | 3.87 s⁻¹
B9 (protein) | O=C(/C=C/c1ccc(O)cc1)c1ccc(O)cc1O | – | – | – | – | 0.375 ± 0.0367 s⁻¹
oxdC (Bacillus subtilis, UniProt O34714) | O=C(O)C(=O)O | pH 4.2 | 25 °C | – | – | 30 ± 1 s⁻¹
B10 (Nudt8) | CC(C)(COP(=O)(O)OP(=O)(O)OC[C@H]1O[C@@H](n2cnc3c(N)ncnc32)[C@H](O)[C@@H]1OP(=O)(O)O)[C@@H](O)C(=O)NCCC(=O)NCCSC(=O)CC(=O)O | pH 8.5 | – | – | 2 mM Mn2+ | 3.07 ± 0.317 s⁻¹
Tat (Mus musculus, UniProt Q8QZR1) | O=C(O)CCC(=O)C(=O)O | pH 7 | 38 °C | – | PLP | 25.7 ± 1.33 s⁻¹
B11 (cyc1 F332A) | CC(C)=CCC/C(C)=C/CC/C(C)=C/CO[P@@](=O)(O)OP(=O)(O)O | pH 6.5 | 30 °C | – | MgCl2 10 mM | 0.000105 ± 8e-06 s⁻¹
